Assay results of several laboratories.
A part holds a random share of what one study measured. Changes are numbered by the printed parent chain.

Series 1 — method: protein-binding microarray; form: double-stranded DNA, one strand shown; sample: in vitro; concentration: 250 nM; setting: 60-bp whole probe; with: salmon DNA 0.4 mg/ml; relative to: random background probes; direction: higher = stronger binding; measurement: log fluorescence; all sequences stand within: GCCTAGCAC … GTCTTGATTCGCTTGACGCTGCTG
Target: Interferon regulatory factor 7, full length, phosphomimetic (IRF7, Homo sapiens, UniProt Q92985, residues 1-503, S101K/S471D/S472D/S475D/S476D/S477D/S483D/S484D/S487D)
Sequence of UniProt Q92985 (whole entry, unmodified, looked up): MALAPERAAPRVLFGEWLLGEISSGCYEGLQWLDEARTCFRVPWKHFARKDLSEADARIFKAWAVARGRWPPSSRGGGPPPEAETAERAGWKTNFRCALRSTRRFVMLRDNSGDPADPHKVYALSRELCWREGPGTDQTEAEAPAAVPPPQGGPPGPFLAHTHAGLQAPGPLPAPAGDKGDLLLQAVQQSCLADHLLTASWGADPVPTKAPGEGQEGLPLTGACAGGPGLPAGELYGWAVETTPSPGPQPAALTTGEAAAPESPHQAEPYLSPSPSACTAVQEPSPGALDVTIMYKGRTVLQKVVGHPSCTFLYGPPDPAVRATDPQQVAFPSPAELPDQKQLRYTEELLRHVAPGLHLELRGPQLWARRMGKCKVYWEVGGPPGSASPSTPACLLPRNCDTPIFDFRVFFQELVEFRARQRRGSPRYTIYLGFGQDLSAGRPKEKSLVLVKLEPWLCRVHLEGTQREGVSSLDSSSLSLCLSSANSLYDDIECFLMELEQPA
TCAAGTTTCCCTCCCTGACTGTGCTAG: 1.36 z-score
TTAGGACTGGGGTTTCGTTTAGTGCTA: 5.23 z-score
TATTGTTTCCTCTTTCACTGGTGCTAG: 3.23 z-score
GACGGACTGGGGACTTGGGACGTGCTA: -0.478 z-score
TTCGGTCTCCTTCTCCTTTAGTGCTAG: 0.645 z-score
TCACACTTGTGTTTGGGACTGTGCTAG: -0.207 z-score
GACGGTATCCTTCTCCCGACGTGCTAG: 0.197 z-score
GACGTTTTCCTTTCCCTGACGTGCTAG: 2.97 z-score

Series 2 — method: protein binding microarray; form: double-stranded DNA, one strand shown; sample: in vitro; concentration: not given; relative to: not given; direction: higher = stronger binding; measurement: E-score
Target: Histone acetyltransferase KAT6A, both winged helices, GST fusion (KAT6A, Homo sapiens, UniProt Q92794, residues 1-181)
Setting: 8-mer, flanks averaged, mean of 2 arrays, mostly near background
Residues (chain): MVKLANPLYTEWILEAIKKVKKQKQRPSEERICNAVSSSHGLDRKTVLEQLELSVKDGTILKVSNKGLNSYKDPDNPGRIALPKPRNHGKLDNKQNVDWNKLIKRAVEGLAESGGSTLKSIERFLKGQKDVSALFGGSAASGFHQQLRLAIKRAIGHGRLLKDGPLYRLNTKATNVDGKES
AGTCGGTA: 0.0118
AGCCTACG: 0.179
AAACCACG: 0.101
CAGTCGAA: 0.000655
CGCCTTAG: 0.172
ACACCATC: -0.169
ACTAATTC: -0.0213

Series 3 — target: CCNB1, cyclin fold, Cln2 fusion (human); method: yeast growth competition, sequencing; sample: yeast; setting: weak parent motif; relative to: not given; direction: higher = stronger binding; measurement: normalised enrichment score
Starting sequence: E2F8 docking peptide (human); FVPQRKLEVSTED
FVPQRKLEVSTEA [D13A]: 1.01
FVPQRKLEVSTAD [E12A]: 0.079
FVPQRKLEVATED [S10A]: 0.329
FVPQRALEVSTED [K6A]: 0.323

Single results of other studies
PhoQ, residues 284 288 289 292 302 303 SLGVVW — fold induction (PhoP, residues 12 14 15 18 19 HLGGL (Escherichia coli, UniProt P23836); Sort-seq, item: YFP reporter; E. coli; PhoQ-PhoP variant library, with: 10 µM Mg2+; relative to: high Mg2+ state, higher = stronger signaling): 18.3

A few entries again (series 3):
FVPQRKLEVATED [S10A]: 0.329
FVPQRKLEVSTAD [E12A]: 0.079
FVPQRALEVSTED [K6A]: 0.323
